{"data": "Results pooled from the literature", "MAP3K4": "Mitogen-activated protein kinase kinase kinase 4 (MAP3K4, Homo sapiens, UniProt Q9Y6R4)", "note": "Protocols differ between the studies behind these lines.", "chain of UniProt Q9Y6R4 (whole entry, looked up)": "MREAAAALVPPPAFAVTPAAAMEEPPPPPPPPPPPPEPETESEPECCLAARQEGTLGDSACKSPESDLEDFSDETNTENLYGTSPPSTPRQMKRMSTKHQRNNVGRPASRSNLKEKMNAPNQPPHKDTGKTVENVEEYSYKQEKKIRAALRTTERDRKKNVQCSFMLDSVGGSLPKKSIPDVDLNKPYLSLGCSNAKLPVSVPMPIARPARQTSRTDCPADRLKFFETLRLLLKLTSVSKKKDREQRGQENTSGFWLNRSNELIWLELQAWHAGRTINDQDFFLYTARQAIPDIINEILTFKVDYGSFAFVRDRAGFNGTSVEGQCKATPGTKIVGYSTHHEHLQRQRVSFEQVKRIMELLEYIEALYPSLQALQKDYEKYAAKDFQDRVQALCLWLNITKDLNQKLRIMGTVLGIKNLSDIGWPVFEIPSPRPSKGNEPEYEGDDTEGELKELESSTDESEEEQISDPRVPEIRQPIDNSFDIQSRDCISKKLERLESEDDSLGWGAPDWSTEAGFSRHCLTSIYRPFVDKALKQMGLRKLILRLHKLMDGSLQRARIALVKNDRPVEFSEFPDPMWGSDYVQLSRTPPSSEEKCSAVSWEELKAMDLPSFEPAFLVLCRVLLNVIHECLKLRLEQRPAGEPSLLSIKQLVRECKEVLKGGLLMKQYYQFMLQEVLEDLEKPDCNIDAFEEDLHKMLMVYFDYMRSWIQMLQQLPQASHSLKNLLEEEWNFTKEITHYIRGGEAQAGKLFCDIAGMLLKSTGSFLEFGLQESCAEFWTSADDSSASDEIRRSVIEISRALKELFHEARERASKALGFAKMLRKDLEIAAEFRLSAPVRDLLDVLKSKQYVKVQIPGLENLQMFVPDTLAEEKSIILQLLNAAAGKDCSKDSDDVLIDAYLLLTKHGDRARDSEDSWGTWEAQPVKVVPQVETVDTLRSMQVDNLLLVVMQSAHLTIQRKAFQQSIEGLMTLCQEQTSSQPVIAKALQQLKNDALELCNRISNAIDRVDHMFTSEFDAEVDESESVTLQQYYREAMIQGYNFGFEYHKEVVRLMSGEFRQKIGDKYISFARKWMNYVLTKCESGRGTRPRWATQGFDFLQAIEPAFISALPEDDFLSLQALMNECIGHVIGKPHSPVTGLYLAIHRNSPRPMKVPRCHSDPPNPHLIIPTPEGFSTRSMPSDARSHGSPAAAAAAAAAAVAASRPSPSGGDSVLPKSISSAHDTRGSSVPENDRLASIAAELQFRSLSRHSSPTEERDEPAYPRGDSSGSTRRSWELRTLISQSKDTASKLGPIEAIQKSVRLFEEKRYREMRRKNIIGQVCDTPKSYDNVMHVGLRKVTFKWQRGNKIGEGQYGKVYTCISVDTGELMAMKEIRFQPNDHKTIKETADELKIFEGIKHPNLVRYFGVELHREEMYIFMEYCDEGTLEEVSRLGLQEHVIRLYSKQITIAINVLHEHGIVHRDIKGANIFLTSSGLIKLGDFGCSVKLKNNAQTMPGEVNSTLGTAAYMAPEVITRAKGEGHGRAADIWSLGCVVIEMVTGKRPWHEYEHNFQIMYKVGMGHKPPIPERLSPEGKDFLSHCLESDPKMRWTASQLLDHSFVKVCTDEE", "chain of UniProt P35348 (whole entry, looked up)": "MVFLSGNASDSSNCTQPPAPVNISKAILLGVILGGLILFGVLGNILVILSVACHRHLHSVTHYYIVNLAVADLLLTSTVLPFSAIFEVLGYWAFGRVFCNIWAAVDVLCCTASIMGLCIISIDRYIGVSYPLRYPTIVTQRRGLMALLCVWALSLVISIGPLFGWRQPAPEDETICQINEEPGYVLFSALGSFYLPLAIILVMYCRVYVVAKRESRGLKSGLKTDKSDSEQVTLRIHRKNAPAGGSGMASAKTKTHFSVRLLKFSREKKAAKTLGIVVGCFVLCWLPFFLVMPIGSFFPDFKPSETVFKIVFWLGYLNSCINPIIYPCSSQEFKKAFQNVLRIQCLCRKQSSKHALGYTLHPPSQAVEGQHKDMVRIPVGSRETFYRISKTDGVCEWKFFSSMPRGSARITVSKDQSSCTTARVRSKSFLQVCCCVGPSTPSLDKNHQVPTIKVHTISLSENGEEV"}
{"Compound": "[2H]c1c([2H])c([C@]2([2H])CCCN2C(=O)C(C)(C)Oc2ccc3cn[nH]c3c2)c([2H])c([2H])c1C([2H])([2H])[2H]", "tested on": "MAP3K4", "test": "binding, competition with immobilised ligand", "setting": "1 µM", "measurement": "remaining binding", "result": "73%"}
{"Compound": "CC(C)C[C@H](NC(=O)[C@H](Cc1ccccc1)NC(=O)[C@H](Cc1ccccc1)NC(=O)Cc1ccc(-c2ccccc2)cc1)C(=O)N[C@@H](CCCCN)C(=O)N[C@@H](CCCNC(=N)N)C(=O)N[C@H](C(=O)N[C@@H](Cc1c[nH]c2ccccc12)C(=O)N[C@@H](CCCCN)C(=O)N[C@@H](CCCNC(=N)N)C(=O)O)C(C)C", "test": "metabolic stability, mass spectrometry", "test system": "mouse, liver microsomes", "setting": "30 min", "measurement": "compound remaining", "result": "20.1%"}
{"Compound": "O=C(O)/C=C/c1ccc(O)c(O)c1", "tested on": "HaCaT", "test": "cell growth or viability, MTT", "setting": "24 h", "measurement": "CC50", "result": "> 250 µM"}
{"Compound": "COc1ccc(C(=O)Nc2ccccc2C(=O)N[C@H](C(=O)NC2CCCCC2)C(C)C)cc1", "tested on": "MRC5", "test": "cell growth or viability, MTT", "setting": "72 h", "measurement": "CC50", "result": "139 µM"}
{"Compound": "N#C[C@@]1(n2ccc(N)nc2=O)O[C@H](CO)[C@@H](O)[C@H]1O", "tested on": "Vero", "test": "cell growth or viability", "measurement": "CC50", "result": "98.7 µM"}
{"Compound": "Cc1nn(C)cc1-c1nc2c(N3CCN(Cc4ccc(Cl)cc4)CC3)c(Cl)cnc2[nH]1", "tested on": "MAP3K4", "test": "binding, competition with immobilised ligand", "setting": "1 µM", "measurement": "remaining binding", "result": "94%"}
{"Compound": "CCC(CC)COC(=O)[C@H](C)N[P@](=O)(OC[C@H]1O[C@@](C#N)(c2ccc3c(N)ncnn23)[C@H](O)[C@@H]1O)Oc1ccccc1", "tested on": "Vero", "test": "cell growth or viability", "measurement": "CC50", "result": "> 100 µM"}
{"Compound": "C[N+]1=C2C=C(N)C(=O)c3[nH]cc(c32)CC1", "tested on": "HEK293", "test": "cell growth or viability, MTT", "setting": "72 h", "measurement": "CC50", "result": "0.78 µM"}
{"Compound": "N.N.[Cl][Pt][Cl]", "tested on": "U2932", "test": "cell growth or viability, ATP luminescence", "setting": "10 µM, 72 h", "measurement": "inhibition", "result": "97%"}
{"Compound": "C[N+]1=C2C=C(NCCc3ccc(O)cc3)C(=O)c3[nH]cc(c32)CC1", "tested on": "HEK293", "test": "cell growth or viability, MTT", "setting": "72 h", "measurement": "CC50", "result": "1 µM"}
{"Compound": "Nc1ncc(-c2nc(N3CCOCC3)nc(N3CCOCC3)n2)c(C(F)F)n1", "tested on": "ADRA1A (Homo sapiens, UniProt P35348)", "test": "cell-free assay, radioligand", "setting": "10 µM", "measurement": "remaining signal", "result": "94.4%"}
{"Compound": "CC(C)[C@H](NC(=O)c1ccccc1NC(=O)c1ccccn1)C(=O)N[C@H](CO)C(C)C", "tested on": "MRC5", "test": "cell growth or viability, MTT", "setting": "72 h", "measurement": "CC50", "result": "> 250 µM"}
{"Compound": "CC(=O)N[C@H](C(=O)N1C[C@H](O)C[C@H]1C(=O)NCc1ccc(-c2scnc2C)cc1)C(C)(C)C", "tested on": "SNU-C4", "test": "cell growth or viability, ATP luminescence", "setting": "24 h", "measurement": "CC50", "result": "> 30 µM"}
{"Compound": "COc1cc(C=CC(=O)O)ccc1OC(C)=O", "tested on": "HaCaT", "test": "cell growth or viability, MTT", "setting": "24 h", "measurement": "CC50", "result": "> 250 µM"}
{"Compound": "CC(C)(C)C(O)C(Oc1ccc(-c2ccccc2)cc1)n1cncn1 (stereo not drawn)", "tested on": "HEK293", "test": "cell growth or viability, MTT", "setting": "24 h", "measurement": "CC50", "result": "100 µM"}
{"note": "A few entries again:"}
{"Compound": "CC(C)[C@H](NC(=O)c1ccccc1NC(=O)c1ccccn1)C(=O)N[C@H](CO)C(C)C", "tested on": "MRC5", "test": "cell growth or viability, MTT", "setting": "72 h", "measurement": "CC50", "result": "> 250 µM"}
